Results pooled from the literature.
Every numbered part comes from another study and shows a few of its results, in no order.

Set 1
Target: Sal-like protein 4, full length isoform B (SALL4, Homo sapiens, UniProt Q9UJQ4-2, residues 1-616)
Method: universal PBM
Molecule type: double-stranded DNA, one strand shown
Matrix: in vitro
Concentration: not given
Notes: 8-mer, flanks averaged, mean of replicates
Reading: higher = stronger binding
Target sequence (chain): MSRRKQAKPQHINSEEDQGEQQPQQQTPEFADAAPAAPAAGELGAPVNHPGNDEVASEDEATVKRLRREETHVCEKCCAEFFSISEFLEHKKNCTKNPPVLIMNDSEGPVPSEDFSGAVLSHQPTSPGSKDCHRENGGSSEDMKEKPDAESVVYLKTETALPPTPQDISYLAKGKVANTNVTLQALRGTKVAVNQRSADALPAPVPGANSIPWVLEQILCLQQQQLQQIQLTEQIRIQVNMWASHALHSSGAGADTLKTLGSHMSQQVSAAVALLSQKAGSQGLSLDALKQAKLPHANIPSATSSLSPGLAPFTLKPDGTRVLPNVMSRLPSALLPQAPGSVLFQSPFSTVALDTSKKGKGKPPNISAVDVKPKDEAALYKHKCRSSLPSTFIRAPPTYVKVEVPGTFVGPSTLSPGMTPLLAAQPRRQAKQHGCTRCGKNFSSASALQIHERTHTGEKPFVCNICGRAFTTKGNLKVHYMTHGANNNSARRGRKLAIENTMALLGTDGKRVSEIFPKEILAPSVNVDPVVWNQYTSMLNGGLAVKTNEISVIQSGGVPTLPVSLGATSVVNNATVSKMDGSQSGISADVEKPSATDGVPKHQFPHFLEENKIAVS
| Sequence | E-score |
| --- | --- |
| ACGCCTAA | 0.0324 |
| ACACGGAT | 0.0372 |
| GCGACGCA | -0.189 |
| AAATGGGT | 0.183 |
| CGCTAATA | 0.221 |
| ATCCTCCA | 0.0638 |
| GCGCTCCA | -0.381 |
| GACGTCGA | -0.0936 |
| AGAGAAAA | 0.0761 |
| CGCACTGA | -0.223 |
| AATGAACT | 0.0677 |
| GACAGCAA | 0.0526 |
| CCAACCTA | 0.01 |
| ATTGCAGA | 0.205 |
| ACAACATC | 0.186 |
| AACTAAAC | 0.0527 |
| TCGGAAGA | -0.117 |
| GAGGCAGA | -0.14 |
| CTGTGAAC | -0.0158 |
| AGTAGCGA | -0.00235 |
| TACTCCCA | 0.0593 |
| CGTCCCGC | -0.303 |
| ACATAAGC | 0.186 |

Set 2
Target: Ras GTPase-activating protein-binding protein 1, RRM domain (G3BP1, Homo sapiens, UniProt Q13283)
Chain of UniProt Q13283 (whole entry, looked up): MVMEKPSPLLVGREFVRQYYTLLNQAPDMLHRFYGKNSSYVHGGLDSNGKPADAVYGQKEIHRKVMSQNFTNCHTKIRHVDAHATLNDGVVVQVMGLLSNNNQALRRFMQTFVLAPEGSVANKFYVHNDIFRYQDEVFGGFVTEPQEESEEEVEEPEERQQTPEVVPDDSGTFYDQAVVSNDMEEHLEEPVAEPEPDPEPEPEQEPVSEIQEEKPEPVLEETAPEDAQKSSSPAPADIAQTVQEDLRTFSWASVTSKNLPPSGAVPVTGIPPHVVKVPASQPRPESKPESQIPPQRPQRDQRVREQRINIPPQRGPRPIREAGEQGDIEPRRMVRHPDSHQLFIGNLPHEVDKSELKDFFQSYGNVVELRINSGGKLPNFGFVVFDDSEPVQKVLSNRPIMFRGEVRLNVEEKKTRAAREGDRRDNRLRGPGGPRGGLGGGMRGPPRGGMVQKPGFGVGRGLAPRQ
Method: RNA Bind-n-Seq
Molecule type: RNA
Matrix: in vitro
Concentration: 1 µM
Notes: whole 134-nt RNA, ends assumed
Together with: 150 mM KCl
Baseline: input library
Reading: higher = stronger binding
All sequences stand within: GGGAGUUCUACAGUCCGACGAUC … UGGAAUUCUCGGGUGUCAAGG
| Sequence | log2 enrichment |
| --- | --- |
| AGUCACUUUUUAAUUUUAUUUAUUAUUUCUCCUCUUAGACCGCAGGAUGGAAACAAGCCCACUGAGACUAGUCAACCUCAAUCUAGCACA | -1.29 |
| UGGCCCUGGUGGCAAGCGGGGAGGAAGAGGUGGCCUCAUGGAUCGUGGUGGUCCCGGUGGAAUGUUCAGAGGUGGCCGUGGUGGAGACAG | 0.819 |
| CACAGACAACACGCACCCACACAGACACAGAGGGAAGGGGUUGGGAUGGGGACAGGGUGCACAGCAGGGGGGGGUAGGACCCCAGCCCCU | -0.323 |
| AAGUCCUGUGCUACACAUCGUAUGUACCGAAUCGGGUUUGGGUUUGGGUUUUUGGGAAAGUAUUAUGUUACGCCGUUCGGAUCUGCACUU | 0.585 |
| UCCUCAAGUCCUGUGCUACACAUCGUAUGUACCGAAUCGGGGAGGAGGGAGGAAAGUAUUAUGUUACGCCGUUCGGAUCUGCACUUCCAG | -0.241 |
| UUCCCAAGAUGGCGGCGGACGUGUCCGUUACUCACCGGCCCCCGCUGAGCCCUAAGUCUGGGGCCGAAGUCGAAGCCGGCGAUGCCGCGG | -0.832 |
| UUUAGUGACUUUGGAUGAAGUAACUGAAGAGGAUGAAGACUCUCUGGCGGAUUUUAACAACCUUAAAGAAGAGCUUAAUUUUGUUACUGU | -0.298 |
| AGUCCUGUGCUACACAUCGUAUGUACCGAAUCGGGGAAAAGGGAAAAGGGAAAAGGGGAAAGUAUUAUGUUACGCCGUUCGGAUCUGCAC | 0.612 |
| CUGUGCUACACAUCGUAUGUACCGAAUCGGGGUUUUUUUGGGGAAAAAGGGGUUUUUGGGGAAAGUAUUAUGUUACGCCGUUCGGAUCUG | 0.549 |

Set 3
Target: RING finger protein unkempt homolog, zinc fingers 1-6, SBP tag (UNK, Homo sapiens, UniProt Q9C0B0, residues 30-357)
Chain of UniProt Q9C0B0 (30-357, looked up): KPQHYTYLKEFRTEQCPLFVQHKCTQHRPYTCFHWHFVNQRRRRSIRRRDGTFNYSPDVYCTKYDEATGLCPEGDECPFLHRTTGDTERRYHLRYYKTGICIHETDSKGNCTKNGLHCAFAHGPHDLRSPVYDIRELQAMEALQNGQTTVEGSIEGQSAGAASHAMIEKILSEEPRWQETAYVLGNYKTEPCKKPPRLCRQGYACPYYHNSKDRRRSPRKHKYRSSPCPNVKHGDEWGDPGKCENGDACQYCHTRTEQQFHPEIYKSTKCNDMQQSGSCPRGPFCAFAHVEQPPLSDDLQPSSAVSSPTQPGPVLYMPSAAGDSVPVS
Method: RNA Bind-n-Seq
Molecule type: RNA
Matrix: in vitro
Concentration: 100 nM
Notes: RNA with constant flanks, vertebrate orthologous sites, ends assumed
Baseline: input RNA pool
Reading: higher = stronger binding
All sequences stand within: GGGAGUUCUACAGUCCGACGAUC … CAACAGAGGAUUGAGCAUCA
| Sequence | bound/input enrichment [ratio] |
| --- | --- |
| GCACAUGCCGCUAUCACCAAAAGCAAAUUGCCAUUUUUCAAAUUUCAUCCAGAGCCGUUUUAGUGUUUCCUAUUCCCUGCCCUUCCCAUUACUUUCAAUGAUGAACGUUCUCCUCUGACA | 2.7 |
| AGGAAAUGCUGGCUGCAAACCCUCAGGAUCGUCCAGAUGCUUUUGAACUAGAACUCAGAUUAGUACAAAUUGCAUUUAAAGAUAGCAGCUGGGAGACGUGACACAUAUUAUUUGCAAAUA | 0.944 |
| CUCCUCUUAAUCCCAUCUCAUCUGUUUCAUAGUGCUGCAAUUCCACCUUCAGCCUUAUUUUUAGUGAACUUAUUCUAAUUCUAGAGAAACUUCCAGUGGAUACUGUGAGCUAUAUGGAGA | 1.89 |
| UGGGUUACUCCUAUUAUUAUCAAGUAGCUGGAAUUGUGAAGGUUGGAGUAGUUAGAUCUUUAGCUUUUACUCCUUAUUUUUUUGUAUUACUAUCCAUGUGUAUAAAUUAUUGAUCAUGUU | 1.51 |
| CCCCCUGACCCUAAAGUAGUAGAUCUUUUUAAAAUUAUGUCACCACCACUUGUAAAAAUUUAGCAAUACCAGAAGAAAACGCUAAUGAAGUAAGAAAUUUUGCUCAUUGUUUUGCAAACC | 2.26 |
| GGGAGAUAUUGAAUAGUAUUAAACAUUUUCGUCUUCCUUUACCUUUUAUCCCCUAAUACCUAGUCUUUUUUAAAUUUCAGACUUCACUGCUCUUUGAAUUGAUAAUUCCAAUUUUCACAU | 2.97 |
| GAAAAUGGCUUCUGCUCCAUUAAAAAGUAAAAAUUGUCCUCCAAAUAUAAAACUCCUUAAUAGAUAUUUUUGAAAUUAAAAUCUUUAAAUUUUAUAAAUCAGCUGUUGCCACUACACAAC | 2.44 |
| CUCUAUGGGCCUCGCAGAGUUGAGAUCCUGGAAGAAGAAAGUGAACAGUAAUCGUCAAUUCAGUAUUUAUGCUUAGGUGUGAAAUAAAUGUUAUUUGUUGAUCAUUUCUAUAAUCCAGAG | 0.256 |

Set 4
Target: RNA binding protein fox-1 homolog 2, RRM domain, GST-SBP tag (RBFOX2, Homo sapiens, UniProt O43251-10, residues 100-194)
Method: RNA Bind-n-Seq
Molecule type: RNA
Matrix: in vitro
Concentration: 365 nM
Notes: natural RNA segment, single round, ends assumed
Baseline: no-protein control
Reading: higher = stronger binding
All sequences stand within: GGGAGUUCUACAGUCCGACGAUC … UGGAAUUCUCGGGUGCCAA
Target sequence (chain): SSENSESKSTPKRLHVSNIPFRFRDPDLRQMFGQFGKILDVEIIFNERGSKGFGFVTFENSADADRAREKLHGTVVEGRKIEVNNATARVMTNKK
| Sequence | RBNS enrichment (R) |
| --- | --- |
| CAGACUUCUGCCCGCUUGGGACAGAACAUUGCAUGUGAGGUGGGAUUAUCAAGUUUCAAAGACCUGUGUCAACCAUACAGCAAAGGCAGACCCCAUAACGACGUCCCACA | 1.86 |
| AAUGGAUGCAUCAAGUUUCUAAAUUUUAUUUCCUGCCUAAAGAAACCAAAUUGUCCCUCAGCAUCCUUGUCUCCAGCCCUGAGGAAACACCUAAAGAGAAGCAAUGGCUC | 0.453 |
| AAAAAGGCUAAAGGCUAUGCGAUAUGAAUUUCAGAAAUGGACUGAAAAUGGAGAGCUAUGUAACAGAUACACUACAGUAGAAGAACUUACUUCUGAAAUGAAGGGAAAAA | 0.387 |
| GCUUAAUACAACAGGUGCCCAGAAUACUUGCAGUGUAAAUGAAGAUUGGAUUUUUGUAUAAAAAGAUAAUGCUGUCAAACGGGAACUGACCUUUAUUGAAUCUGAAAUGA | 0.657 |
| CUGCUCUGAAGGGAUCCCUCAGUUCACCGAUUGGCAAGCCAAGGUCAGUCCUUGCUGUUGAUGGAGCUGGGAGGAGGAGGGACCUAAGGACUCAGGACAGAGCAUCUCAC | 0.467 |
| UUGUACUAACUCAGCAUGUAACAACCAAUUUACAUGGAAAUAAAUCGAAAUAUGAUAACUAUUAUGCUUAAAUGGAUUUGCGUCUAUUAUUUCAUAGUAUUUACUCUCCU | 0.402 |
| ACAUUUCUUGGAGGUGGCUGUGUGGGGAACGGCUUGCUUACAGGUACAGCAGGUACAACCGCCUGACAGUCUCACAGGUUGUAUCCCACUCCUUACCUGUGGCCCCACCC | 0.372 |
| AGAUGGGCCCCAGGCUCCUCCAUAUGGCCCAGGGCUUACCACCCUAUCACACGUGGCCUUGUCUAGACCCAGUCCUGAGCAGGGGAGAGGCUCUUGAGACCUGAUGCCCU | 0.239 |

Some of these lines once more (set 2):
| Sequence | log2 enrichment |
| --- | --- |
| UUUAGUGACUUUGGAUGAAGUAACUGAAGAGGAUGAAGACUCUCUGGCGGAUUUUAACAACCUUAAAGAAGAGCUUAAUUUUGUUACUGU | -0.298 |
| UUCCCAAGAUGGCGGCGGACGUGUCCGUUACUCACCGGCCCCCGCUGAGCCCUAAGUCUGGGGCCGAAGUCGAAGCCGGCGAUGCCGCGG | -0.832 |
| AAGUCCUGUGCUACACAUCGUAUGUACCGAAUCGGGUUUGGGUUUGGGUUUUUGGGAAAGUAUUAUGUUACGCCGUUCGGAUCUGCACUU | 0.585 |
